Assay results pooled from the literature.
A part holds a random share of what one study measured. Positions count from the first letter of the parent shown.

Sample 1
Target: CCNF, cyclin fold, Cln2 fusion (human)
Technique: yeast growth competition, sequencing
Sample: yeast
Notes: strong parent motif
Baseline: not given
Direction: higher = stronger binding
Endpoint: normalised enrichment score
Starting sequence: E2F1 docking peptide (human); PPVKRRLDFETDH; partner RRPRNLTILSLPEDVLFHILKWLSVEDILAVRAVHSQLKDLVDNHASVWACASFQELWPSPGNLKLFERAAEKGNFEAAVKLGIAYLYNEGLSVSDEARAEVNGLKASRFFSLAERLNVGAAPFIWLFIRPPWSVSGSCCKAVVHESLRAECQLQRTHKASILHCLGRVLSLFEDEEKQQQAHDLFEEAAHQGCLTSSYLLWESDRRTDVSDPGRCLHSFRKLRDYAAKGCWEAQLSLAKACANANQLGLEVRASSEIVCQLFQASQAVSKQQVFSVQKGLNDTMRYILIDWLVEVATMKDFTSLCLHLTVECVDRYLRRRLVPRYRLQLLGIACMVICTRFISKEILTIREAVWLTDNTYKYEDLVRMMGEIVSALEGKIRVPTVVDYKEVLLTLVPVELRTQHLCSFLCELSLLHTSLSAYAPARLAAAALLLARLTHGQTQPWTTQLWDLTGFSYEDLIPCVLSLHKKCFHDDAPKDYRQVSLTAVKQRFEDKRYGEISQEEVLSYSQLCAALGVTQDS
Substitution = R6N; value = 5.31
Substitution = D8R; value = 8.1
Substitution = K4M; value = 6.93
Substitution = P2T; value = 7.73
Substitution = V3H; value = 7.06
Substitution = L7W; value = 0.565
Substitution = D8P; value = 6.76
Substitution = F9E; value = 0.975
Substitution = P2E; value = 7.41
Substitution = L7I; value = 6.67
Substitution = D12M; value = 7.89
Substitution = K4I; value = 6.64
Substitution = K4D; value = 5.41

Sample 2
Target: Ras GTPase-activating protein-binding protein 1, full length (G3BP1, Homo sapiens, UniProt Q13283)
UniProt Q13283, sequence (whole entry, looked up): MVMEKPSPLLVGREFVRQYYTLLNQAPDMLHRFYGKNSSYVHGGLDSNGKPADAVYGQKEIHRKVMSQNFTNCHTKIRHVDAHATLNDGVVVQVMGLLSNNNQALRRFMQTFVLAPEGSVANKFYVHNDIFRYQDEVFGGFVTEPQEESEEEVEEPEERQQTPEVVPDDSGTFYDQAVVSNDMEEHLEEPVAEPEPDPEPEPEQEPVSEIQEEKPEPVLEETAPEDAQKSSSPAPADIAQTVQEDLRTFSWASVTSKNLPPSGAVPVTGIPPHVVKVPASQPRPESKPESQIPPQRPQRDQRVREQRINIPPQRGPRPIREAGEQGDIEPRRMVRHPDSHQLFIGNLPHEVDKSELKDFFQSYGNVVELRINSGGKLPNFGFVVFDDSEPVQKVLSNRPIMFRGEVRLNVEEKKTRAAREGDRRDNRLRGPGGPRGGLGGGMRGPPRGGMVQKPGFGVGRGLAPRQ
Technique: RNA Bind-n-Seq
Form: RNA
Sample: in vitro
Tested at: 200 nM
Notes: whole 134-nt RNA, ends assumed
Added: 150 mM KCl
Baseline: input library
Direction: higher = stronger binding
Endpoint: log2 enrichment
Shared flanks, not repeated: GGGAGUUCUACAGUCCGACGAUC … UGGAAUUCUCGGGUGUCAAGG
Oligonucleotide = GUCCUGUGCUACACAUCGUAUGUACCGAAUCGGCCCCCGGGGCCCCCGGCCCCCGGGGAAAGUAUUAUGUUACGCCGUUCGGAUCUGCAC; value = -0.731
Oligonucleotide = AAGUCCUGUGCUACACAUCGUAUGUACCGAAUCAAACCCAAAUUUUUAAAUUUAAAAAAGUAUUAUGUUACGCCGUUCGGAUCUGCACUU; value = -0.37
Oligonucleotide = AGUCCUGUGCUACACAUCGUAUGUACCGAAUCGGGAAAAAGGGUUUUUUUGGGUGGGAAAGUAUUAUGUUACGCCGUUCGGAUCUGCACU; value = 0.0654
Oligonucleotide = GUCCUGUGCUACACAUCGUAUGUACCGAAUCGGGUUUUUUGGGUUUUUUGGUUUUUUGGAAAGUAUUAUGUUACGCCGUUCGGAUCUGCA; value = -1.04
Oligonucleotide = GCUUUGCCUUCACUUAUUUCUUUGCUUUUUAAAAACUAUUUGUAAUGUAAUUUUAAUGCAUUUUUUACAGGCCCAGUAAUGGUUAAAUAC; value = -0.665
Oligonucleotide = UGGGAGGUGGAUUUUGUUUAUUUUUUUUGCUCAUUUCCAGGGGUGGGAAUUUUUUUUUAAUAUGUGUCAUGAAUAAAGUUGUUUUUGAAA; value = 0.283
Oligonucleotide = UGGCCCUGGUGGCAUGCGGGGAGGAAGACGUGGCCUCAUGGAUCGUGGUGGUCCCGGUGGAAUGUUCAGAGGUGGCCGUGGUGGAGACAG; value = 0.154
Oligonucleotide = UCCUCAAGUCCUGUGCUACACAUCGUAUGUACCGAAUCGGCGGCGGCGGGGAAAGUAUUAUGUUACGCCGUUCGGAUCUGCACUUCCAGC; value = -0.13
Oligonucleotide = CACAGACAACACGCACCCACACAGACACAGAGGGAAGGGGUUGGGAUGGGGACAGGGUGCACAGCAGGGAAAGGUAGGACCCCAGCCCCU; value = 1.75

Sample 3
Target: RNA binding protein fox-1 homolog 2, RRM domain, GST-SBP tag (RBFOX2, Homo sapiens, UniProt O43251-10, residues 100-194)
Technique: RNA Bind-n-Seq
Form: RNA
Sample: in vitro
Tested at: 365 nM
Notes: natural RNA segment, single round, ends assumed
Baseline: no-protein control
Direction: higher = stronger binding
Endpoint: RBNS enrichment (R)
Shared flanks, not repeated: GGGAGUUCUACAGUCCGACGAUC … UGGAAUUCUCGGGUGCCAA
Construct (chain): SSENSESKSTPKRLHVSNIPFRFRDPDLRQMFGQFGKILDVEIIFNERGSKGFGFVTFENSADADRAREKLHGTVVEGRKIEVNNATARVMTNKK
Oligonucleotide = GAGAAAGAGGCAGUCUGUUGGAGAGGCAUACUUGAGCAGGAUAAAGAUCCUAAAUGGCAGCCUUUCAGAUAGGCAUGUCUGACACCUGCUGAGGCCUCUACCAGUUCACU; value = 0.463
Oligonucleotide = GUGCUCCCCCAACUAUGUAUCAGAUAAGAUUCUUUGAUCCCGACUCUGUGUGUGCGAGCACGCGUGUCUGUGUUUGUGUGUGCAUAGUUCUGUGGUUUUAGACACGCUUU; value = 0.316
Oligonucleotide = GCAAGCAGAUUCGAAGAGCUGUUGCCCUCUUCUAAAAAAGGCUUUUGGAGGCUGUGUUACAUGCAUGCCCUAAAGCAGUCAGUCUGUUAGUAUGAGCAAGACAUCUGAAG; value = 2.39
Oligonucleotide = GCUCUCCAGAAUUACUUGUAGGUAAUUCCUCUCUUCAUGUUCUAAUAAACUUCUACAUUAUCACCAACAGCCUGAUUGCUGCUGAACACACUGGGUAAGUGUUUGCUGAG; value = 0.706
Oligonucleotide = UAAACCACAGUCUGGAGUGAUAGCUACUGUAGAAAGGAAAUAGACUUUGUAUGAACUCUUUAAGUUGAAAAGUAAAAAAUAUAUGUGGUUUGGAUGUGUGCUUUAAUUCA; value = 2.27
Oligonucleotide = GCGGUGACGACUGCUCCAUGGGGAAGCUAAAAUAUCCUCGCCAGUUCCGGAGCACCCUUGUGAAGAAAAUGUGUUCUUUCUUCCGAUGGGUCCAGUUGCAGUGGCCAAUU; value = 0.421
Oligonucleotide = AGUUUAAGCAGAAGGGUUUUGUUUCUAUUGUAAGUUAGGUUCUAAAAGUGUAUAAUCUGAUACUCUAGCCCAACUGAAAUAUUAUAUCUUGGGCGUUACAGCCUUUGUCU; value = 0.306
Oligonucleotide = GUGCCUCUCUGUAUCCUAUGGAAAGCAGCCCCAUGCUUUCUGCUCCCCUCUGCACUCUCUCACAGGGACAAACUUGCAGAUACAUCCGAUAGGGUCUUGGCUUUCUACUG; value = 0.501

Sample 4
Target: ABI1, truncated, D143A, DHFR fusion (Arabidopsis thaliana)
Technique: DHFR PCA, deep sequencing
Sample: yeast
Notes: methotrexate growth selection, single substitutions
Added: (+)-ABA 2500 µM
Baseline: wild-type fitted maximum
Direction: higher = stronger binding
Endpoint: relative binding score
Starting sequence: PYL1, truncated, DHFR fusion (Arabidopsis thaliana); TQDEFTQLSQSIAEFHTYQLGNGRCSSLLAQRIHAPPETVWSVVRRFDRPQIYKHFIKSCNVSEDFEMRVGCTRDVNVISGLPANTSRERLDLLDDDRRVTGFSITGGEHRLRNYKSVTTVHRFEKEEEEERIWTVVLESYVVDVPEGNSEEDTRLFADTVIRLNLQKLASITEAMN; partner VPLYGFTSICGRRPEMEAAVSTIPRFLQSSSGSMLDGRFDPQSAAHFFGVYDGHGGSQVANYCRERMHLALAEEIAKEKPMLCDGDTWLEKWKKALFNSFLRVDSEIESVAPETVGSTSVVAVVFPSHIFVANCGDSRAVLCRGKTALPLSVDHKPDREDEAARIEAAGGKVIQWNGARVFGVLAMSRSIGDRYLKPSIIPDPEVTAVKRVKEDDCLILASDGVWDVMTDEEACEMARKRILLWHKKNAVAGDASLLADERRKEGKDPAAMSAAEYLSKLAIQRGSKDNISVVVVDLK
Substitution = L29M; value = 91.9%
Substitution = L93E; value = 103%
Substitution = R98P; value = 48.8%
Substitution = L8K; value = 102%
Substitution = G108R; value = 70.3%
Substitution = R155Y; value = 70.8%
Substitution = T1E; value = 96.8%
Substitution = I79F; value = 99.1%
Substitution = M176T; value = 98.3%
Substitution = T1C; value = 97%
Substitution = L164A; value = 99.5%
Substitution = L94R; value = 85%
Substitution = V62C; value = 98.5%
Substitution = E38H; value = 89.7%
